Experimental data of several laboratories.
Numbered parts are unrelated; each lists some results of a single study. Positions count from the first letter of the parent shown.

Sample 1 — method: universal PBM; form: double-stranded DNA, one strand shown; matrix: in vitro; concentration: 600 nM; direction: higher = stronger binding; endpoint: E-score
Target: Sal-like protein 4, full length isoform A (SALL4, Homo sapiens, UniProt Q9UJQ4, residues 1-1053)
Chain of UniProt Q9UJQ4 (whole entry, looked up): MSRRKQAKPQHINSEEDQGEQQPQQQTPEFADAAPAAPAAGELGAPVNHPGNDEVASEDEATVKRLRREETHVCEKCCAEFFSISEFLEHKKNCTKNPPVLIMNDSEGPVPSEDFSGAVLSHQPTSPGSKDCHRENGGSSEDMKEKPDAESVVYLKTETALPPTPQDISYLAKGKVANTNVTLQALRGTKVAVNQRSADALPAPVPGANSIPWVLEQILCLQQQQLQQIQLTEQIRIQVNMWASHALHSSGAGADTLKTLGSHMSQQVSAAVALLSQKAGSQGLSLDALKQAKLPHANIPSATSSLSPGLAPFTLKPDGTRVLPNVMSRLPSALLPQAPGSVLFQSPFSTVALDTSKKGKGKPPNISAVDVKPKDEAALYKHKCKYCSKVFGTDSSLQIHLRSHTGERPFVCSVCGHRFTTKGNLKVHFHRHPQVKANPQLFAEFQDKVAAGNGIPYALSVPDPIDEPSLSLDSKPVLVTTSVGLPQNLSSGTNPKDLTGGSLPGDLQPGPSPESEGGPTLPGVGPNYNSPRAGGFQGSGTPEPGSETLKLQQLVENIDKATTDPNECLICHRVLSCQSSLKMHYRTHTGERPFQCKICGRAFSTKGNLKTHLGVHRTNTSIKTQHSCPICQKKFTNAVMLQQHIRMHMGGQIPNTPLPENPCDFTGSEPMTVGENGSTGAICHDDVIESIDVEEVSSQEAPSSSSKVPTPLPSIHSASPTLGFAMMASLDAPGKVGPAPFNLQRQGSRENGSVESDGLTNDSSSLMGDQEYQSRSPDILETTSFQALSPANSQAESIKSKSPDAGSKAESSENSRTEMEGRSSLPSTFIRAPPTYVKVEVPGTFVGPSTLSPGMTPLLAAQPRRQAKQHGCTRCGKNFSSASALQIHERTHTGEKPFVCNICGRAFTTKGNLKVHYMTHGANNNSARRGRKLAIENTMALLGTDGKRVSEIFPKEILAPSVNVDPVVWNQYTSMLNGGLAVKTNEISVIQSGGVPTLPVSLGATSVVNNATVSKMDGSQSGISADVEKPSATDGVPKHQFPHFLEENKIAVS
Setting: 8-mer, flanks averaged, mean of replicates
AAGACCTT: 0.0349
CTAGAATA: 0.299
ATTTATGG: 0.374
GCACTAGC: -0.19
GAGGTTTA: 0.0827
AGCACAAC: -0.000295
CTCCTCAC: -0.137
CTGATTCC: -0.152
GAGTGCCC: -0.335
AGGGGTGA: -0.25
CACCGTCG: -0.268
ATCACTCA: 0.12
CCGGCCCG: -0.363
GAATACAA: 0.209
CACAGGCC: -0.12
CGTGTTTA: 0.0982
ACCTTGTA: 0.231
CCTGGGCA: -0.271
ACTAGATA: 0.29
CAGGATCA: -0.116
TAGGATCA: 0.0278
ACCCGCAC: -0.275
GAAAGCGC: -0.227
AATTTTAT: 0.362
CCTATCAG: -0.105

Sample 2 — target: UBE2E1 UBC core domain (UniProt P51965); method: yeast two-hybrid; matrix: yeast; setting: mostly zero background; baseline: not given; direction: higher = stronger interaction; endpoint: lacZ reporter activity
Chain of UniProt P51965 (whole entry, looked up): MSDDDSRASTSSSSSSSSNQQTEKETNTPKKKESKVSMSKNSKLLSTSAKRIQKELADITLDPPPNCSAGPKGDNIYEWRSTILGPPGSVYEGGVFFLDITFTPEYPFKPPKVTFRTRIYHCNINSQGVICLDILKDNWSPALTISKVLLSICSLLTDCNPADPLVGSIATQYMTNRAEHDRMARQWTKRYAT
B1: TRIM74 RING domain (UniProt Q86UV6); chain SLLELEDWLQCPICLEVFKESLMLQCGHSYCKGCLVSLSYHLDTKVRCPMCWQVVDGSSSLP
B2: TRIM32 RING domain (UniProt Q13049); chain NLDALREVLECPICMESFTEEQLRPKLLHCGHTICRQCLEKLLASSINGVRCPFCSKITRITSLTQ
B3: CBLL1 RING domain (UniProt Q75N03); chain GEKDDTPVHFCDKCGLPIKIYGRMIPCKHVFCYDCAILHEKKGDKMCPGCSDPVQRIEQCT
B4: RNF10 RING domain (UniProt Q8N5U6); chain VRICSHEVPSCPICLYPPTAAKITRCGHIFCWACILHYLSLSEKTWSKCPICYSSVHKKDLKS
B5: TRIM2 RING domain (UniProt Q9C040); chain VRQIDKQFLICSICLERYKNPKVLPCLHTFCERCLQNYIPAHSLTLSCPVCRQTSILPEKGV
B6: TRIM47 RING domain (UniProt Q96LD4); chain MDGSGPFSCPICLEPLREPVTLPCGHNFCLACLGALWPHRGASGAGGPGGAARCPLCQEPFPDGLQLR
B7: RNF11 RING domain (UniProt Q9Y3C5); chain RDGSEKKIRECVICMMDFVYGDPIRFLPCMHIYHLDCIDDWLMRSFTCPSCMEPVDAALLSS
B1 (TRIM74 RING domain): 0
VPADASPDSKCPICLDRFDNVSYLDRCLHKFCFRCVQEWSKNKAECPLCKQPFDSIFHSV (TOPORS RING domain (UniProt Q9NS56)): 12500
AAQLLEEKLTCAICLGLYQDPVTLPCGHNFCGACIRDWWDRCGKACPECREPFPDGAELR (TRIM65 RING domain (UniProt Q6PJ69)): 0
B2 (TRIM32 RING domain): 0
EDVLSKDAGECAICLEELQQGDTIARLPCLCIYHKGCIDEWFEVNRSCPEHPSD (ZNRF2 RING domain (UniProt Q8NHG8)): 0
B3 (CBLL1 RING domain): 0
B4 (RNF10 RING domain): 0
B5 (TRIM2 RING domain): 0
B6 (TRIM47 RING domain): 0
B7 (RNF11 RING domain): 0

Sample 3 — target: CCNA2, cyclin fold, Cln2 fusion (human); method: yeast growth competition, sequencing; matrix: yeast; setting: strong parent motif; baseline: not given; direction: higher = stronger binding; endpoint: normalised enrichment score
Parent: SCAPER docking peptide (human); SNARRSLNFGGST
INARRSLNFGGST [S1I]: 5.84
SNARRSLCFGGST [N8C]: 4.73
SNARRSLNQGGST [F9Q]: 0.639
SNARRSLNWGGST [F9W]: 4.14
SNARRSRNFGGST [L7R]: 0.882
SPARRSLNFGGST [N2P]: 5.01
SNARRSCNFGGST [L7C]: 0.917
SNARRILNFGGST [S6I]: 4.44
SNARRSLNFGGDT [S12D]: 5.81
SNARRSLNFGGSH [T13H]: 5.71
SNARASANFGGST [R5A L7A]: 0.255
SNARRRLNFGGST [S6R]: 6.85
SNARRSQNFGGST [L7Q]: 1.12
SNARRSLNFCGST [G10C]: 5.29
SNARRSLNFGGSP [T13P]: 5.98
SNARRSLRFGGST [N8R]: 5.01
SNARRSLNVGGST [F9V]: 1.61

Sample 4 — method: protein binding microarray; form: double-stranded DNA, one strand shown; matrix: in vitro; concentration: not given; baseline: not given; direction: higher = stronger binding; endpoint: E-score
Target: Histone acetyltransferase KAT6A, both winged helices, GST fusion (KAT6A, Homo sapiens, UniProt Q92794, residues 1-181)
Setting: 8-mer, flanks averaged, mean of 2 arrays, mostly near background
Construct (chain): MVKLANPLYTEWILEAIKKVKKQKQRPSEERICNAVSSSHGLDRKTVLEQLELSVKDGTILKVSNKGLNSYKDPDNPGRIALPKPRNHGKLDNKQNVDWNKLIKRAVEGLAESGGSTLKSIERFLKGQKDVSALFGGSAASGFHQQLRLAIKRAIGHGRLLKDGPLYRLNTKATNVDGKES
AGCCTACA: -0.286
TAACGCGA: 0.155
CTGCGCTC: 0.139
GTGGCACA: -0.148
ACTGGCTG: -0.0274
ACTTAACC: -0.192
CCAAGCCG: 0.216
CGTCGTAC: 0.153
CCAGGGCA: -0.106
GACAACTA: -0.139
AAAGACCC: -0.0138
GATCGTTA: 0.0619
ACTACCTC: -0.19
CTATAGAA: -0.0466
ATAAGACC: -0.0272
CTACGGGA: 0.258
AATTGGGT: -0.16
GCAATTGC: 0.312
AGAAGGGA: -0.167
AACATTCA: -0.0674
AGCCGCCG: 0.329
ATTAATCC: -0.049
AAGCGACG: 0.224
CGGGACAC: 0.18
AGAGATAT: -0.227

Sample 5 — method: RNA Bind-n-Seq; form: RNA; matrix: in vitro; concentration: not given; baseline: input RNA pool; direction: higher = stronger binding; endpoint: bound/input enrichment
Target: RING finger protein unkempt homolog, zinc fingers 1-6, GST-SBP tag (UNK, Homo sapiens, UniProt Q9C0B0, residues 30-357)
Setting: RNA with constant flanks, human-mouse chimeric sites, ends assumed
Construct (chain): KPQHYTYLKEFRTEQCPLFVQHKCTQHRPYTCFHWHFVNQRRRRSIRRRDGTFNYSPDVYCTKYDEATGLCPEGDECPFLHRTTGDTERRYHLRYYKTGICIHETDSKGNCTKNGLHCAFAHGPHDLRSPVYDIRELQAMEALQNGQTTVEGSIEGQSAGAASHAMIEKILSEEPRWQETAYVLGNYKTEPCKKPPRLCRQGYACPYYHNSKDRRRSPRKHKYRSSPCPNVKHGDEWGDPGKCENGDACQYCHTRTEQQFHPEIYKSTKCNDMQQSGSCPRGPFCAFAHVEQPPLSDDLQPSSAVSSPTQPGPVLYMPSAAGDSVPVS
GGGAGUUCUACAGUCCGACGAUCACUCUUGACUCUUUCCAUCCUCUUCCUUUCCCUCUUGAUAUUCAAGGCCAUGAAUCCCAAAAUAACAGUCUUAGUGGCUAGCACCCAAACAGAGGUGGGUGCCAUCCAAACUGACAACUCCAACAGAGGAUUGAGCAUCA: 0.534 ratio
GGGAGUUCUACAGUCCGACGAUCUGACAAGGGCACUGCAGAGCCAUGCCUUUCCUUGACAUACAGAAAAAGCUGGGCAUCAGCCUGGACCGGCACUUUAUGUUCCUAAGCGGUGAACAGCCCUAUAAGAACGCCGCUCGGUGCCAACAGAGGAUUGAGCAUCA: 0.0876 ratio
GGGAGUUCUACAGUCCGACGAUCCUGGCACUCUAUCAGAUAUAUUAAUUUUUUAAUGUAGAUAAAAUUUCAAAAAUGAAUGGCUACUUUACACGUUUAACUAGGGUUUUACUACAUAUGUGUACAUAUGUAUAUAUAUAUAUACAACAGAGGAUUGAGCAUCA: 7.08 ratio
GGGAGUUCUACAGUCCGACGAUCAUUGUUGAAGCGAAUCCACUCCUAGAAGCAUUUGGAAAUGCAAAGACUGUUCGCAACAAUAAUAGCAGUCGAUUUGGGAAAUUUGUAGAAAUUCAUUUCAAUGAAAAGAGUUCGGUUGUUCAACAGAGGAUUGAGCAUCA: 0.263 ratio
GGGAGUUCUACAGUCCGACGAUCAUCAAAUACUUUGGGGACAUCAUUAGUGUGGGACAGAGAUUGUUGCAAGGAGCUCGGAUCUUAGGGAUUCCAGUUAUUGUAACAGAACAAUACCCCAAAGGACUUGGCAGCACCGUUCAACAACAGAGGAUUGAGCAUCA: 0.189 ratio
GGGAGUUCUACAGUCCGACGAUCAUAAAGGCCAUGUUGAGUGGUCCAGGUCAGUUUGCUGAGAAUGAAACCAACGAGGUCAAUUUUAGAGAGAUACCUUCACAUGUGCUAUCAAAAGUGUGCAUGUAUUUUACCUACAAGGUCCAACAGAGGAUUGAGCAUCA: 0.106 ratio
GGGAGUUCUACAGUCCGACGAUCUCAGUCUUUUUGUACAGCUUUGUAAAUUCUUAACAUUUUUAUAUUGCCAUGUUUAUUUUUUUUAGAUAAUUUGGUUCAUUAAGUACAUAGCUAAGGUAAUGAACAUCUUUUUCAGUAAUUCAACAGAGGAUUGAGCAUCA: 6.82 ratio
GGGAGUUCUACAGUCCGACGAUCAGAGAUAAGACAUCCAGGAACAUGCGAGGCUCCCGGAUGAAUGGGUUUCCAAGUCCCACUCAUAGUGCCCACUGUAGCUUCUACCGAACCAGAACCUUGCAGGCACUGAGUAAUGAGAAGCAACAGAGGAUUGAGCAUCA: 0.0963 ratio
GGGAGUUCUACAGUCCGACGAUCAGAAUCUUGGGACUGUUUUACUUAAUUGGUCAUUGAUAUCUCAACAAGCAUGGAGAUAAGAUUAGAAAUCUUGACAUCAACAGGUAUUAAGCAGAAAAAACCAUGGCCACGUGUCUCCUGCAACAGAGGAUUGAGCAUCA: 0.141 ratio
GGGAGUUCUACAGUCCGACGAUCUUGAAAAACACAGAUAUCAAAGUUGUUGACUUUGGAAGUGCAACGUAUGAUGAUGAACAUCAUAGUACUUUGGUGUCUACCCGGCACUACAGAGCUCCCGAGGUCAUUUUGGCUUUAGGUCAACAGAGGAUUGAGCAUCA: 0.481 ratio
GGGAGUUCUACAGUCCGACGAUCAGGAGGAGGUUAAAGGGUGAGAGUGGGGUGGAAGACUGUGUCAUGGCCCUAGAAACCCUGUUCAGUGUCCUGCUUUCUCUGUGCAGACUGAUGGCCCCUUACACGCCUUUUCUCACUGAGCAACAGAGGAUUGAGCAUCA: 0.0508 ratio

Sample 6 — target: CEBPB, bZIP domain (human); method: DHFR protein complementation; matrix: yeast; baseline: wild-type JUN-FOS pair; direction: higher = stronger binding; endpoint: binding fitness
Setting: single substitutions, most at no-binding floor
Parent: JUN, bZIP domain (human); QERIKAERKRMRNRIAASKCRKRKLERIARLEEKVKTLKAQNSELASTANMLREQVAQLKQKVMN; partner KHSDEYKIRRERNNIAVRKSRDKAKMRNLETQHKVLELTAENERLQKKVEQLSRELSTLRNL
S43V: -1.35 natural log
M51E: -1.3 natural log
M51Q: -1.16 natural log
V35W: -1.33 natural log
M51K: -1.17 natural log
A49S: -1.5 natural log
S47A: -1.14 natural log
R53P: -1.44 natural log
L52P: -1.5 natural log
A46N: -1.25 natural log
K34C: -1.34 natural log
E33A: -1.35 natural log
A40V: -1.34 natural log
Q55A: -1.33 natural log
E44T: -1.28 natural log
E44A: -1.35 natural log

Sample 7 — method: DHFR PCA, dose-response; matrix: yeast; setting: Hill fit, mean, not affinity; added: (+)-ABA, dose series; direction: lower = more sensitive; endpoint: ABA EC50
Target: ABI1, truncated, D143A, DHFR fusion (Arabidopsis thaliana, UniProt P49597)
Parent: PYL1, truncated, DHFR fusion (Arabidopsis thaliana, UniProt Q8VZS8); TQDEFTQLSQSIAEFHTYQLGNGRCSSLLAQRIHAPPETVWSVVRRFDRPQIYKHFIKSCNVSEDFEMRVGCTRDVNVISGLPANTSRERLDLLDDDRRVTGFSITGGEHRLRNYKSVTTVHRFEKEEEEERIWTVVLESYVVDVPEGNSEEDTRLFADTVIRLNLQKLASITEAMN
L156H: 4.25 µM
S59Q: 3.75 µM
T73E: 1.47 µM
D97N: 2 µM
T101N: 175 µM
F157C: 754 µM
I52Y: 5.42 µM
E129D: 1.34 µM
H122Q: 68.6 µM
V40P: 868 µM
T17D: 23.6 µM
D159Y: 641 µM
F124G: 6.04 µM
T106Q: 9.16 µM
Q51I: 121 µM
L166V: 567 µM
Y18K: 7.06 µM
C72N: 4.93 µM
E128Q: 1.77 µM
W134M: 0.94 µM
E151P: 2.57 µM
F66T: 6.26 µM
R46L: 18.7 µM
G71D: 81.3 µM
T160R: 22.2 µM

A few entries again (sample 6):
R53P: -1.44 natural log
A46N: -1.25 natural log
M51E: -1.3 natural log
E44A: -1.35 natural log
Q55A: -1.33 natural log
S47A: -1.14 natural log
E33A: -1.35 natural log
V35W: -1.33 natural log
K34C: -1.34 natural log
E44T: -1.28 natural log
L52P: -1.5 natural log
M51Q: -1.16 natural log
A40V: -1.34 natural log
A49S: -1.5 natural log
M51K: -1.17 natural log
S43V: -1.35 natural log
